# Measurements of several laboratories.
# Every numbered part comes from another study and shows a few of its results, in no order. Positions count from the first letter of the parent shown.

# Set 1
# Target: Fragile X messenger ribonucleoprotein 1, C-terminal low-complexity region (Fmr1, Mus musculus, UniProt P35922)
# Method: RNA Bind-n-Seq
# Molecule type: RNA
# Medium: in vitro
# Tested at: 200 nM
# Setting: whole 134-nt RNA, ends assumed
# Together with: 150 mM KCl
# Baseline: input library
# Reading: higher = stronger binding
# Shared flanks, not repeated: GGGAGUUCUACAGUCCGACGAUC … UGGAAUUCUCGGGUGUCAAGG
Oligonucleotide,log2 enrichment
UAACUUUAGAGGAGAAUCUGAUGGAUAUGGCAGUGGACGUGGAUUUGGGGAUGGCUAUAAUGGGUAUGGAGGAGGACCUGGAGGUGGCAA,0.317
CUGUGCUACACAUCGUAUGUACCGAAUCGGGGAAAGGGGUUUUUUUGGGGAAAAAAAGGGGAAAGUAUUAUGUUACGCCGUUCGGAUCUG,-0.226
CAAGUCCUGUGCUACACAUCGUAUGUACCGAAUCGGCCCCGGCCCCGGGGCCCCGGAAAGUAUUAUGUUACGCCGUUCGGAUCUGCACUU,-1.06
ACCAUGCAGGUGGGCAUCUUUGGGAAGCGGGGCAAGGGGGGGAUAGGGAGGGGGGUAACACUUUGGGAACAGGUGGUCCCAGGUCGUUUC,0.942
UUGUCUACAGAACUAGACAGUACGGAUGGUGCCAAAGUUUUUAGUAAACAACCAGGAAGAAUCCAAAGAGUAGCAAGAGGAUCGGGUGUA,-1.39
AGUCCUGUGCUACACAUCGUAUGUACCGAAUCAAACCCCCCCAAACCCAAAUUUAAAAAAGUAUUAUGUUACGCCGUUCGGAUCUGCACU,-0.054
CCUGUGCUACACAUCGUAUGUACCGAAUCAAAUUUUUAAAUUUUUUUAAACCCCCCCAAAAAAGUAUUAUGUUACGCCGUUCGGAUCUGC,0.155
CACAGACAACACGCACCCACACAGACACAGAGGGAAGGGAUUGGGAUGGGGACAGGGUGCACAGCAGGGCGGGGUAGGACCCCAGCCCCU,1.27
CUGUGCUACACAUCGUAUGUACCGAAUCGGGCCCCCCCGGGGCCCCCCCGGGCCCCCCCGGGAAAGUAUUAUGUUACGCCGUUCGGAUCU,-1.23
AGUCCUGUGCUACACAUCGUAUGUACCGAAUCGGAAAAGGGGAAAAGGGAAAAGGGGAAAGUAUUAUGUUACGCCGUUCGGAUCUGCACU,0.0708
AGUCCUGUGCUACACAUCGUAUGUACCGAAUCGGGCCCCCGGGCCCCCGGCCCCCGGAAAGUAUUAUGUUACGCCGUUCGGAUCUGCACU,-0.395
UUUAGGUGUUAGACGGUACCGACAACCAGUAUUUGGGCCUGCAGAUUGGACAGCCCCAGGAUGAAGAUGAGGAAGCCACAGGUAUUCUUC,-1.92
AAGUCCUGUGCUACACAUCGUAUGUACCGAAUCGGAAAAGGAAAAGGGGAAAAGGGAAAGUAUUAUGUUACGCCGUUCGGAUCUGCACUU,-0.467
AGUCCUGUGCUACACAUCGUAUGUACCGAAUCGGGUGGGAAAAAAAGGGUUUUUGGGAAAGUAUUAUGUUACGCCGUUCGGAUCUGCACU,0.398

# Set 2
# Target: CCNE2, cyclin fold, Cln2 fusion (human)
# Method: yeast growth competition, sequencing
# Medium: yeast
# Setting: strong parent motif
# Baseline: not given
# Reading: higher = stronger binding
# Starting sequence: CDKN1B docking peptide (human); PSACRNLFGPVDH
Substitution,normalised enrichment score
PSACRNLFGPHDH [V11H],1.65
PMACRNLFGPVDH [S2M],0.425
WSACRNLFGPVDH [P1W],1.17
PSACKNLLGPVDH [R5K F8L],-0.143
PSACHNLFGPVDH [R5H],0.312
SSACRNLFGPVDH [P1S],1.22
PSACRNLNGPVDH [F8N],0.0517
PSACRNWFGPVDH [L7W],0.0941
PSACRNIFGPVDH [L7I],0.585
PSACRNLFGPTDH [V11T],0.788
CSACRNLFGPVDH [P1C],0.956
PSGCRNLFGPVDH [A3G],0.059
KSACRNLFGPVDH [P1K],2.09
PSACRSLFGPVDH [N6S],0.793
PSACRNLEGPVDH [F8E],-0.347
PSACNNLFGPVDH [R5N],0.236
PSACMNLFGPVDH [R5M],0.407

# Set 3
# Target: RNA binding protein fox-1 homolog 2, RRM domain, GST-SBP tag (RBFOX2, Homo sapiens, UniProt O43251-10, residues 100-194)
# Method: RNA Bind-n-Seq
# Molecule type: RNA
# Medium: in vitro
# Tested at: 365 nM
# Setting: natural RNA segment, single round, ends assumed
# Baseline: no-protein control
# Reading: higher = stronger binding
# Shared flanks, not repeated: GGGAGUUCUACAGUCCGACGAUC … UGGAAUUCUCGGGUGCCAA
# Residues (chain): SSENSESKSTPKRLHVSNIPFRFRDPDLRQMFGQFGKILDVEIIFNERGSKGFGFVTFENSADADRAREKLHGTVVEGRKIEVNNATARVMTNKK
Oligonucleotide,RBNS enrichment (R)
AGAGUUGUCUGCAACAUUUUUGUUUUCUUUUUUAAUGUCCAAAAGUGGGGGAAAGUGCUAUUUCCUAUUUUCACCAAAAUUGGGGAAGGAGUGCCACUUUCCAGCUCCAC,0.952
AGCUGACAGGCUGUUGCUGUGCCUGCUCACACCUGCUCCUGCAGGCACACUGGGCUAGGGACGAGGAAGGAGCAGCCACAAGUGGUAGAACUGCCUUGGUGGACACCAGC,0.392
AUAACGAAACUGUAGUUUUCAGAUUGAAGAAUGAACCUGGAUCACCAAACUAGAUACCGAAAGGGCUCCUCAUUUGUCUCUUUUGUCCCAUUGUGGGCAUAUGGUGGGCU,0.38
ACCUGCCACCAGCAGCCCGCGAGGGAAUGCGAGGUGUGAUUGUCCCAGUGGCUCUCAACCCAUGCGCUACCAAAUACGCCUGGGCAGCCGGGACGGGCCGGCGGGCACCA,0.184
UGCUGGUGGCUGCUCUCACAGUGGCUUGUAACAACUUCUUCUGGGAGACCAGUUGAGCACAGUCUGUGAGCAGUGCCCUUCCUCUCCCACUUGUCAAGAUUUCCCCUUUA,0.382
UCUUUGCAUUGUGUACAUUAUCAUUGCUACAUCAGUUGUUACAGUGUUGAAAGGCUACCAGUUAUAUUUGCUGUUAAUAGUCUAUUUGUAGAUUAGGAUUAAAGUGGGUU,1.89
UCUCUUACUGCCAUAGGAAAUUAUUUUAGGGGUUGGAGGUGGGACAAGCAGGCUUGUUUCCACCAAUAGUGCCAAAAAGAUAUUGCCUAAUGUGCACCUGUGAGGUGUAA,0.314
CUCUGACCCCAGAGCUCUGAAGAAUGCUCUUAUCAGAAGAUAGGAAAUGAAAAUAUCCUUUUUUAAAAUAUGUGGAAGUAAUUUGGGUAUAAUUAGUUUUUUUCUACCUU,1.24
UUUAAUUUCAGCUACUGUGAAUUCUUUCGAUCAGUCCUUUGCUUUUUUAAAAAAUCUUUUCCAUCGUGUUAAAAAGAAAAUUAGCUAUUAGGAGAUAUUAAAAGAUUGAU,0.577
GUCCCGGGCUGCUUUGUAGUGAGCCUGUUUCCACUGCUCUGGUAGCUGAGCCAGGCUAUGAGGAAACCCUGGAUAUCAGCAUAAACCUAUGUCUGGGACUACGAUCCCUU,0.545
UGGCCCAUUAAGAGGCCUCAGUGGGAGAAGGGCUAAAAAGAGCCUGAGGUCAUGCGGUUGGACACUGAACUUGGUAAAGACGUCCUUCCCCAAGGAAGCCAUAAUGUGCA,0.968
CUAAGCAUUCAGAAGACAGAGGCAGGAAGAAAAUUCAAAAAUGGGGCUGGAGAGAUGGCUCAGUGGUUAAAAGCACUGGCUGCUCUUGGUCAGGACACUAGUUCAGUUCC,0.35

# Set 4
# Target: Histone acetyltransferase KAT6A, winged helix 1, GST fusion (KAT6A, Homo sapiens, UniProt Q92794, residues 1-85)
# Method: protein binding microarray
# Molecule type: double-stranded DNA, one strand shown
# Medium: in vitro
# Tested at: not given
# Setting: 8-mer, flanks averaged, mean of 2 arrays, mostly near background
# Baseline: not given
# Reading: higher = stronger binding
# Construct (chain): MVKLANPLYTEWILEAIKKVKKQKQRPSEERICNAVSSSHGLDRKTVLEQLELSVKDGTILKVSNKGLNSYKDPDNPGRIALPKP
Oligonucleotide,E-score
ACAGTATG,-0.121
CTGCGGCC,0.348
CAAAAGTG,-0.133
GCTACACC,0.122
ACACCGAT,0.0343
CACCTACA,-0.19
CTGACTTA,-0.109
CATGGAAG,-0.173
GCGTTCCC,0.24
CCTTCGGC,0.151
CCATGATC,-0.195
AGCCCCCC,-0.0933
GTTACCCA,-0.093
AATGGGTA,-0.154
CCGGTAAG,0.232
CACTATTC,0.066
AAGGTCAT,-0.0866
CCGTAAGG,0.247
GCAAATGA,-0.233
AAGAATCG,0.125
ACTCGGCA,0.16
ATAGCTAC,-0.174

# Set 5
# Target: RING finger protein unkempt homolog, zinc fingers 1-6, GST-SBP tag (UNK, Homo sapiens, UniProt Q9C0B0, residues 30-357)
# Sequence of UniProt Q9C0B0 (30-357, looked up): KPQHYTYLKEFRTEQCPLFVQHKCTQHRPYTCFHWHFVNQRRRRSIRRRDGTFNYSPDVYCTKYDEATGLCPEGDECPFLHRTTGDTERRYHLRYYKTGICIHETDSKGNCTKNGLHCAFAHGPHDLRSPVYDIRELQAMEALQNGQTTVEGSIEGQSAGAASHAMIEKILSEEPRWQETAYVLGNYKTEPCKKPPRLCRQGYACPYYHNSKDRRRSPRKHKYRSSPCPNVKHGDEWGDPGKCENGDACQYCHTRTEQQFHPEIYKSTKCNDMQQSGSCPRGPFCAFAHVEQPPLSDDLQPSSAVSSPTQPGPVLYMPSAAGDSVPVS
# Method: RNA Bind-n-Seq
# Molecule type: RNA
# Medium: in vitro
# Tested at: not given
# Setting: RNA with constant flanks, human and mouse sites, ends assumed
# Baseline: input RNA pool
# Reading: higher = stronger binding
# Shared flanks, not repeated: GGGAGUUCUACAGUCCGACGAUC … CAACAGAGGAUUGAGCAUCA
Oligonucleotide,bound/input enrichment [ratio]
ACAUGCUUUUGUAACGAGCAAAUGUCUAAAGUGACAACACGGAAAAAUAAAUACAGGAUCAUCAUUGAGUUGCUUAACAAAUAUACUUAAGAACAUUAAUACAGUCAUUUUGAGAAAAGU,0.269
GAGGUUGUUAAGGACAAAGCAGGACCUCAUAAGGAAAUCUACCCCUAUGUCAUCCAGGAACUUAGACCAACUUUAAAUGAACUGGGAAUCUCCACUCCGGAGGAACUGGGCCUUGACAAA,0.415
GCCAGAGAAAACAAGUUCAUAGUUCGUGACUUCCAGUAUAACGAGGAGGAGAUGAAAGCAGAUAAAGAAGAAAUGACCAGGCUGUCUACUGACAAGAAGAAGCAGUUUGGACCACUUGUG,0.357
CAUGGCUGUGCUGGUCGUUCUCCUGUUCUUUCUGGUGGCGGGUGCUUUAGGGAAUGAAUUUAGCAUAUUAAGAUCGCCAGGGUCUGUUGUUUUCCGAAAUGGAAAUUGGCCUAUACCAGG,8.29
UAUCCAGUUAAAAAACGGGUGAAAAUACAUCCCAACACAGUGAUGGUGAAAUAUACUUCUCAUUAUCCCCAGCCUGGCGAUGAUGGAUAUGAAGAAAUCAAUGAAGGCUAUGGAAAUUUU,0.162
UUUGUAACUUAUCUGUAAAAGGUUUCUCCCUACUGUCAAAAAAAUAUGCAUGUAUAGUAAUUAGGACUUCAUUCCUCCAUGUUUUCUUCCCUUAUCUUACUGUCAUUGUCCUAAAACCUU,1.71
AUAAUGAAAACAGUGAAGGGUUUUUUUUAUGUUUCAUUACUUCUUGGCAUUCUGAAGGAGAUAGCUGGAAACACCAUAAUUCACAAAACAGAUUCAGAUGAAAAAGUCACAGUGCUGUUU,0.164
GGCGCGGCGCUGCAGAACUACAACAACGAGCUGGUCAAGUGCAUAGAGGAGCUGUGCCAGAAGCGGGAGGAGCUGUGCCGGCAGAUCCAGGAGGAGGAGGACGAGAAGCAGCGGCUGCAG,0.352
GCUUUUGAUGAUGCAAUUGCAGAACUGGAUACGCUGAGUGAAGAAAGCUAUAAGGACUCUACACUUAUCAUGCAGUUGUUACGUGAUAAUCUGACACUAUGGACUUCAGACAUGCAGGGU,0.215
CUGAAUCUUCUAAAUCACCCAUGGCUGGUCCAGGAUACAGAGGCUGAAACUCUGACUGGUUUUUUGAAUGGCAUUGAGUGGAUUCUUGAAGAAGUGGAAUCUAAGCGUGCAAGAUGAUUC,0.188
GUAAUCCUGGUUGCUUGGGAAGUUGAGAUAGGAUAACAAGUUCAAGGCCAGCCUGCACAACUUAGAACCUGUCUGGAAAUGAGAAAUAACUACCCUCACGAGGACUAUUAACAUAGGAUU,0.298
